Results of several laboratories.
Lines come from different studies, so protocols differ. Values joined by “and” are separate records of one study, mostly repeats; a detail may differ. ± marks the error that the study gave.

| Compound | assay | system | conditions | tissue uptake |
| --- | --- | --- | --- | --- |
| O=C(O)CCCOc1ccc([18F])cc1-c1cc(-c2ccccc2C(F)(F)F)n(-c2ccccc2)n1 |  | mice, bladder and urine | intravenous, 60 min | 0.08 ± 0.01 %ID/g |
| CC(C)C[C@H](NC(=O)[C@@H](CCCCNC(=O)[C@@H](Cc1ccccc1)NC(=O)CCCCCCCNC(=O)CN1CCN(CC(=O)O)CCN(CC(=O)O)CCN(CC(=O)O)CC1)NC(=O)[C@H](Cc1ccc(O)cc1)NC(=O)[C@H](CO)NC(=O)[C@H](Cc1c[nH]c2ccccc12)NC(=O)[C@H](Cc1c[nH]cn1)NC(=O)[C@@H]1CCC(=O)N1)C(=O)N[C@@H](CCCNC(=N)N)C(=O)N1CCC[C@H]1C(=O)NCC(N)=O [indium-111 labelled] | biodistribution | male athymic nude mice, DU-145 prostate cancer xenograft, pancreas | intravenous, 0.037 MBq, 1 h post-injection | 0.32 ± 0.07 %ID/g |
| CCCC[C@H](NC(=O)CNC(=O)CNC(=O)[C@H](CCCCNC(=O)[C@H](CC(N)=O)NC(=O)C(C)c1ccc(CC(C)C)cc1)NC(=O)CN1CCN(CC(=O)O)CCN(CC(=O)O)CCN(CC(=O)O)CC1)C(=O)N[C@H]1CC(=O)NCCCC[C@@H](C(N)=O)NC(=O)[C@H](Cc2c[nH]c3ccccc23)NC(=O)[C@H](CCCNC(=N)N)NC(=O)[C@@H](Cc2ccccc2)NC(=O)[C@H](Cc2c[nH]cn2)NC1=O (stereo partly drawn) [lutetium-177 labelled] |  | C57 mice, tumour-bearing, spleen | 2 h | 1.76 ± 0.39 %ID/g |
| COc1ccc(Nc2nc(Nc3ccc(OCCOCC[18F])cc3)ncc2Br)cc1 |  | ICR mice, S180 tumour, stomach | intravenous, 370 kBq, 30 min | 0.51 ± 0.01 %ID |
| CCCC[C@H](NC(=O)CNC(=O)CNC(=O)[C@H](CCCCNC(=O)[C@H](CC(=O)O)NC(=O)C(C)c1ccc(CC(C)C)cc1)NC(=O)CN1CCN(CC(=O)O)CCN(CC(=O)O)CCN(CC(=O)O)CC1)C(=O)N[C@H]1CC(=O)NCCCC[C@@H](C(N)=O)NC(=O)[C@H](Cc2c[nH]c3ccccc23)NC(=O)[C@H](CCCNC(=N)N)NC(=O)[C@@H](Cc2ccccc2)NC(=O)[C@H](Cc2c[nH]cn2)NC1=O (stereo partly drawn) [lutetium-177 labelled] |  | C57 mice, tumour-bearing, brain | intravenous, 0.037 MBq, 4 h | 0.04 ± 0.01 %ID/g |
| CCCC[C@H](NC(=O)CCCCCCCNC(=O)CN1CCN(CC(=O)O)CCN(CC(=O)O)CC1)C(=O)N[C@H]1CC(=O)NCCCC[C@@H](C(N)=O)NC(=O)[C@H](Cc2c[nH]c3ccccc23)NC(=O)[C@H](CCCNC(=N)N)NC(=O)[C@@H](Cc2ccccc2)NC(=O)[C@H](Cc2c[nH]cn2)NC1=O [fluorine-18 labelled] |  | C57 mice B16-F10 melanoma, bone | intravenous, 0.37 MBq, 2 h | 0.37 ± 0.11 %ID/g |
| COc1ccc2c(c1)C(C)(C)C(/C=C/C1=C(Oc3ccc(C(=O)NCCCCOc4cc(CN(Cc5ccccn5)Cc5ccccn5)cc(CN(Cc5ccccn5)Cc5ccccn5)c4)cc3)C(=C/C=C3/N(CCCCS(=O)(=O)[O-])c4ccc(OC)cc4C3(C)C)CCC1)=[N+]2CCCCS(=O)(=O)[O-].O=[N+]([O-])[O-].O=[N+]([O-])[O-].[99Tc+].[C-]#[O+].[C-]#[O+].[C-]#[O+].[Zn+2] |  | healthy BALB/c mice, lungs | 12 h | 1.79 %ID/g and 1.31 %ID/g and 2.26 %ID/g and 1.36 %ID/g |
| O=C(NCC1OC2CCC=CCCC2O1)c1ccc(COCCOCCOCC[18F])cc1 (stereo not drawn) |  | healthy female BALB/c nude mice, heart | intravenous, 7.4 MBq per mouse, 30 min | 1.8 ± 0.7 %ID/g |
| Cc1cc(C)n(CCN(CCN)CCCCCCNC(=O)[C@@H](N)Cc2c[nH]cn2)n1.[99Tc+].[C-]#[O+].[C-]#[O+].[C-]#[O+] |  | BALB/c nude mice, A549 xenograft, stomach | intravenous, 24 h | 0.4 ± 0.05 %IA/g |
| N#C[C@@H]1CCCN1C(=O)CNC(=O)c1ccnc2ccc(OCCCN3CCN(C(=O)CCc4ccc(O)c(CN5CCN6CC(=O)[O][Al-]([18F])([O]C(=O)C5)[O]c5ccc(CCC(=O)N7CCN(CCCOc8ccc9nccc(C(=O)NCC(=O)N%10CCC[C@H]%10C#N)c9c8)CC7)cc5C6)c4)CC3)cc12 (stereo partly drawn) |  | BALB/c nude mice, U-87 MG xenograft, brain | 2 h | 0.11 ± 0.01 %ID/g |
| O=C([O-])CN1CCN(CC(=O)[O-])CCN(CC(=O)NC[C@H]2CC[C@H](C(=O)N[C@H](Cc3cnc4ccccc4c3)C(=O)NCCCC[C@H](NC(=O)N[C@@H](CCC(=O)O)C(=O)O)C(=O)O)CC2)CCN(CC(=O)[O-])CC1.[64Cu+2] | ex vivo gamma counting | 22Rv1 tumour-bearing mice, heart | intravenous, 0.74 MBq, 2 h post-injection | 4.8 %ID/g |
| CCCC[C@H](NC(=O)COCCOCCNC(=O)CN1CCN(CC(=O)O)CCN(CC(=O)O)CC1)C(=O)N[C@H]1CC(=O)NCCCC[C@@H](C(N)=O)NC(=O)[C@H](Cc2c[nH]c3ccccc23)NC(=O)[C@H](CCCNC(=N)N)NC(=O)[C@@H](Cc2ccccc2)NC(=O)[C@H](Cc2c[nH]cn2)NC1=O [fluorine-18 labelled] |  | C57 mice B16-F10 melanoma, blood | intravenous, 0.37 MBq, 1 h | 0.69 ± 0.17 %ID/g |
| COc1ccc(Nc2nc(Nc3ccc(OCCOCCOCC[18F])cc3)ncc2Br)cc1 |  | ICR mice, S180 tumour-bearing, bone | intravenous, 370 kBq, 120 min | 3.5 ± 0.34 %ID/g |
| Cc1cc(C)n(CCN(CCN)CCCCCCNC(=O)[C@@H](N)Cc2c[nH]c3ccccc23)n1.[99Tc+].[C-]#[O+].[C-]#[O+].[C-]#[O+] |  | BALB/c nude mice, A549 xenograft, stomach | intravenous, 4 h | 0.39 ± 0.03 %IA/g |
| O=C(NCC1OC2CCC=CCCC2O1)c1ccc([18F])nc1 (stereo not drawn) |  | healthy female BALB/c nude mice, pancreas | intravenous, 7.4 MBq per mouse, 120 min | 0.3 ± 0.02 %ID/g |

Repeated from above:
| Compound | assay | system | conditions | tissue uptake |
| --- | --- | --- | --- | --- |
| CCCC[C@H](NC(=O)CNC(=O)CNC(=O)[C@H](CCCCNC(=O)[C@H](CC(N)=O)NC(=O)C(C)c1ccc(CC(C)C)cc1)NC(=O)CN1CCN(CC(=O)O)CCN(CC(=O)O)CCN(CC(=O)O)CC1)C(=O)N[C@H]1CC(=O)NCCCC[C@@H](C(N)=O)NC(=O)[C@H](Cc2c[nH]c3ccccc23)NC(=O)[C@H](CCCNC(=N)N)NC(=O)[C@@H](Cc2ccccc2)NC(=O)[C@H](Cc2c[nH]cn2)NC1=O (stereo partly drawn) [lutetium-177 labelled] |  | C57 mice, tumour-bearing, spleen | 2 h | 1.76 ± 0.39 %ID/g |
